Published values from different studies.
Parts stem from different laboratories: compare values within a part only. Substitutions count along the parent as printed.

Block 1
Target: Histone acetyltransferase KAT6A, winged helix 1, GST fusion (KAT6A, Homo sapiens, UniProt Q92794, residues 1-85)
Method: protein binding microarray
Molecule type: double-stranded DNA, one strand shown
Matrix: in vitro
Concentration: not given
Setting: 8-mer, flanks averaged, mean of 2 arrays, mostly near background
Baseline: not given
Direction: higher = stronger binding
Residues (chain): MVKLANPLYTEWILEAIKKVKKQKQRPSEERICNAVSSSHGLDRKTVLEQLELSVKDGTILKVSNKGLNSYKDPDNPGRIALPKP
Sequence | E-score
CAAGAAAA | -0.161
CAGTCTTC | -0.0959
GCGGCCTA | 0.224
ATTAATTA | 0.0146
GCGAGGAC | 0.116
GGTCGTCA | 0.00826
ATGCTATC | -0.102
GCCTATCA | -0.122
AAAACGGG | 0.23
CAGTACGC | 0.174
GGAGCTTA | -0.0886
AGGGGCAA | -0.138
ATGGCAGC | -0.0237
CCTCAGCG | 0.3

Block 2
Target: Fragile X messenger ribonucleoprotein 1, C-terminal low-complexity region (Fmr1, Mus musculus, UniProt P35922)
Method: RNA Bind-n-Seq
Molecule type: RNA
Matrix: in vitro
Concentration: 200 nM
Setting: whole 134-nt RNA, ends assumed
With: 150 mM KCl
Baseline: input library
Direction: higher = stronger binding
Shared flanks, not repeated: GGGAGUUCUACAGUCCGACGAUC … UGGAAUUCUCGGGUGUCAAGG
Sequence | log2 enrichment
GUCCUGUGCUACACAUCGUAUGUACCGAAUCGGGGAAAAAGGGGAGGGGAAAAAGGGGAAAGUAUUAUGUUACGCCGUUCGGAUCUGCAC | 0.404
CUGUGCUACACAUCGUAUGUACCGAAUCGGGAAAAAAAGGAAAAAAAGGGGAAAAAAAGGGAAAGUAUUAUGUUACGCCGUUCGGAUCUG | -0.901
CUCAAGUCCUGUGCUACACAUCGUAUGUACCGAAUCGGGGAGGGGAGGGAGGGGAAAGUAUUAUGUUACGCCGUUCGGAUCUGCACUUCC | 1.23
CAAGUCCUGUGCUACACAUCGUAUGUACCGAAUCGGAAAGGUUUGGAAAAAAAGGAAAGUAUUAUGUUACGCCGUUCGGAUCUGCACUUC | -0.841
AAGUCCUGUGCUACACAUCGUAUGUACCGAAUCGGAAAGGAAAAAGGUUUUUUUGGAAAGUAUUAUGUUACGCCGUUCGGAUCUGCACUU | -1.2
CCUGUGCUACACAUCGUAUGUACCGAAUCGGCCCCCCCGGCCCCCCCGGGCCCCCCCGGGAAAGUAUUAUGUUACGCCGUUCGGAUCUGC | 0.0847

Block 3
Target: Sal-like protein 4, full length isoform B (SALL4, Homo sapiens, UniProt Q9UJQ4-2, residues 1-616)
Method: universal PBM
Molecule type: double-stranded DNA, one strand shown
Matrix: in vitro
Concentration: not given
Setting: 8-mer, flanks averaged, mean of replicates
Direction: higher = stronger binding
Residues (chain): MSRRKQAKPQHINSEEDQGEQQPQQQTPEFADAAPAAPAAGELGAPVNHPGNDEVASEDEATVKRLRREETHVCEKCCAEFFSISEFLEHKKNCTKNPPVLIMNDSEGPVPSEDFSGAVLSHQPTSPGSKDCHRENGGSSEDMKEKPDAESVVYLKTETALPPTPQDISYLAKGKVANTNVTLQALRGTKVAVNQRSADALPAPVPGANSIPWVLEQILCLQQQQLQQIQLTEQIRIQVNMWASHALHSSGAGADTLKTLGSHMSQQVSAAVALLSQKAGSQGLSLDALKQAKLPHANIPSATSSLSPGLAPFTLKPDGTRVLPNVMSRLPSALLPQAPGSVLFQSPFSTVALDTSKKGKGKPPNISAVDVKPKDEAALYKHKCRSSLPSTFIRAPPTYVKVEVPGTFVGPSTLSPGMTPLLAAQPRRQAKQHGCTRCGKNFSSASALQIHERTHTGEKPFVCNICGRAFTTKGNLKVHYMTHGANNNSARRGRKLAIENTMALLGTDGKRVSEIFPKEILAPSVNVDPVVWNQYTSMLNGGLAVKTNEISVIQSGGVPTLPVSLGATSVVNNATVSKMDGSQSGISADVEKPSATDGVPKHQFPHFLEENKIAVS
Sequence | E-score
CCGGTATC | -0.219
CGGGCACG | -0.265
ACGTAGGG | -0.145
AGCTGATG | -0.155
GGAAATGA | 0.136
AGCAGGAC | -0.244
CCTGCAAC | -0.0477
GAGGGCCC | -0.34
ATGCCCTG | -0.143
CCGTTACG | -0.063

Block 4
Target: CCNB3, cyclin fold, Cln2 fusion (human)
Method: yeast growth competition, sequencing
Matrix: yeast
Setting: weak parent motif
Baseline: not given
Direction: higher = stronger binding
Starting sequence: E2F1 docking peptide (human); PPVKRRLDLETDH; partner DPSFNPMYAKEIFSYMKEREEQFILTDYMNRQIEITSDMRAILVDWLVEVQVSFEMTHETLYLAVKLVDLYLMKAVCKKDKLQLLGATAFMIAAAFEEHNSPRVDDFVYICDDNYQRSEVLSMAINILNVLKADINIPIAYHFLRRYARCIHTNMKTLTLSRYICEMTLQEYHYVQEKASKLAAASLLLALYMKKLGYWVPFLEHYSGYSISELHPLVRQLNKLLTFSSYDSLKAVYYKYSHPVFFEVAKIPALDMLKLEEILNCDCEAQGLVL
Variant | normalised enrichment score
PCVKRRLDLETDH [P2C] | 0.394
PPVKRRLDLEWDH [T11W] | 0.673
PPVYRRLDLETDH [K4Y] | -0.0448
PPVKRNLDLETDH [R6N] | 0.0883
PPVKRHLDLETDH [R6H] | 0.431
PPEKRRLDLETDH [V3E] | 0.63
PYVKRRLDLETDH [P2Y] | 0.364
PPVKRRLDLETYH [D12Y] | 1.04
PPVKRRLDLWTDH [E10W] | 0.256
PPVKRWLDLETDH [R6W] | 0.287
EPVKRRLDLETDH [P1E] | 0.178
PPVKRRLRLETDH [D8R] | -0.151
PPVKARLDLETDH [R5A] | 0.271
PPFKRRLDLETDH [V3F] | 0.298

Excerpt of the above (block 3):
Sequence | E-score
CCGTTACG | -0.063
AGCAGGAC | -0.244
ATGCCCTG | -0.143
CCTGCAAC | -0.0477
